Assay results gathered from unrelated publications.
Lines come from different studies, so protocols differ.
Observed: metabolic stability

`CC(C)Oc1cc(OCCCCCCCCn2ccnc2)ccc1NC(=N)c1ccccn1` has a half-life of 52 to 68 min (mouse, liver microsomes; 3 µM).
With `CC1(C)CC[N+](C)(CC(=O)OC2CCCCCCCCCCC2)CC1.[I-]` the half-life was 2.6 min (male CD-1 mouse, liver microsomes; 1 µM, pH 7.4).
`COc1ccc(F)cc1CCC1CCC(CCN)O1` (stereo not shown) gave a half-life of 56 min (mouse, liver microsomes; 40 µM, pH 7.4).
For `CC(C)n1ncc2c(C(=O)NCC3(F)CNC3)cc(C3CC3)nc21`, the half-life was no less than 70.1 min (mouse, liver microsomes).
`CC(C)(C)c1ccc(CN(C(=O)CN(C2CC2)S(=O)(=O)c2c(F)c(F)cc(F)c2F)c2ccc(C(=O)O)cc2)cc1` gave a half-life of 38.6 min (male CD-1 mouse, hepatocytes).
The half-life of `OCCN1CCN(Cc2ccc(-c3cnc4[nH]cc(-c5cccc(Cl)c5)c4c3)cc2)CC1` is reported as greater than 120 min (CD-1 mouse, liver microsomes; 20 µM, pH 7.4).
With `C[N+]1(CC(=O)OC2CCCCCCCCCCC2)CCSCC1.[I-]` the half-life was 4 min (male CD-1 mouse, liver microsomes; 1 µM, pH 7.4).
The half-life of `N#C[C@@]1(c2ccc3c(N)ncnn23)O[C@H](CO)[C@@H](O)[C@H]1O` is reported as 842 min (CD-1 mouse, liver microsomes; 1 µM, pH 7.4).
`CONC(=O)c1cccc2c1cc(C)n2-c1nc2c(c(NCc3ccccc3)n1)CCCN2` gave a half-life of less than 10 min (mouse, liver microsomes; 1 µM, pH 7.4).
`CN1CCN(Cc2ccc(-c3cnc4[nH]cc(-c5cccc(Cl)c5)c4c3)cc2)CC1` gave a half-life of no less than 30 min (CD-1 mouse, liver microsomes; 20 µM, pH 7.4).
For `N=C(Nc1ccc(OCCCCCCCCn2ccnc2)cc1)c1ccccn1`, the half-life was 70 min (mouse, liver microsomes; 3 µM).
`CC(C)n1ncc2c(C(=O)NC(C)(C)CN)cc(C3CC3)nc21` gave a half-life of no less than 70.1 min (mouse, liver microsomes).
`C[N+]1(CC(=O)OC2CCCCCCCCCCC2)CCCCCC1.[I-]` has a half-life of 1.8 min (male CD-1 mouse, liver microsomes; 1 µM, pH 7.4).

Excerpt of the above:
`CC(C)(C)c1ccc(CN(C(=O)CN(C2CC2)S(=O)(=O)c2c(F)c(F)cc(F)c2F)c2ccc(C(=O)O)cc2)cc1` gave a half-life of 38.6 min (male CD-1 mouse, hepatocytes).
`C[N+]1(CC(=O)OC2CCCCCCCCCCC2)CCCCCC1.[I-]` has a half-life of 1.8 min (male CD-1 mouse, liver microsomes; 1 µM, pH 7.4).
